Published values of several laboratories.
Every numbered part comes from another study and shows a few of its results, in no order.

Series 1 — method: RNA Bind-n-Seq; form: RNA; sample: in vitro; concentration: 365 nM; reference: no-protein control; direction: higher = stronger binding
Target: RNA binding protein fox-1 homolog 2, RRM domain, GST-SBP tag (RBFOX2, Homo sapiens, UniProt O43251-10, residues 100-194)
Notes: natural RNA segment, single round, ends assumed
Construct (chain): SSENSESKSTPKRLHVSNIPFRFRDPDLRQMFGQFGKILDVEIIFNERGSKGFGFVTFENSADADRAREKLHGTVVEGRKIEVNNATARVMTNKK
`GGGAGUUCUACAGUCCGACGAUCAGGUCAUUAUUUUGUUGUACCAAAGUUCUAGUGGCUUCAGAAAUCAUAGCAUCCAAUGAUUUUUUGGUGUCUGGCUAUGAAUACUAUGGUUGAGAAUUGUAUUCAGUGAUUGGAAUUCUCGGGUGCCAA`: “RBNS enrichment (R)” 0.818.
`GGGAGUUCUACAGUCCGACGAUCCUGGGGCUUCUAAGGCCUGGCUGCAGAACCUCCUGUGAGGAUAAUAUCUGGUGUUUUCUACAAAUUAAGUUCCUACAUUCCAAUUUUUGUAUCUUUUCUCAGGUUAUGCCUGGAAUUCUCGGGUGCCAA` — result for “RBNS enrichment (R)”: 0.881.
`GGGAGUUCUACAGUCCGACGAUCCUCUCCCCUUUUACCAUGACCUUGACACAUGAGCACAUGAAGGAAGGUAGCCAGGGGGCAUUUGCUGUCCAAAAAAAUGUUAUGAGCAGAAGAGAUUUUUACAGUAACAUUGGAAUUCUCGGGUGCCAA` — result for “RBNS enrichment (R)”: 0.349.
Under “RBNS enrichment (R)”, `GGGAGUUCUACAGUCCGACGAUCUGUCUGUAUAAAUCUGUCUUAUCUAGAACUUGUGCUGUCAGGGCACUCUUCCUCACGCUGUUGUUACUCAUGCACCAUUCAGACUUGUUAGAGUAGAUGUGGGUUUAGGAUGGAAUUCUCGGGUGCCAA` is recorded as 0.869.
For `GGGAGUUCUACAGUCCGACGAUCGUUAAGGGCACAAAGACAGCCAUGGGGACAUUUAUGUAAAUACGUCUCUAAUUGCCACACUGCAGCUGAACAGUGUGUAGUAUUUUCCCAGUCAGCUUUGCCAUACUGACUGGAAUUCUCGGGUGCCAA`, “RBNS enrichment (R)” read 1.15.
For `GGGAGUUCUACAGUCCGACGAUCUUGAGUUGUUUUGGAGUAAUAUCCCACAACUGGGGUAGGAAGCUCAGGACUUUUUUCUUUAAAGCUAGUCAUUUCAAAAGCAUAUUGUAUUUUUUUGAAUGACUACAGUAUGGAAUUCUCGGGUGCCAA`, “RBNS enrichment (R)” read 0.485.
For `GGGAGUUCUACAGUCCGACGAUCUUAAGAAGCUCAUGACCAAGGGCCGCUACUCGCUGGAUGUAUGGAGCUAGGAGCUGCCGCCCCCCACCCCUCGCUCCCUGUAAUCACGUCCUUAACUUCCUUCUGCCGACUGGAAUUCUCGGGUGCCAA`, “RBNS enrichment (R)” read 0.934.
For `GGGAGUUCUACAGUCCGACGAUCCCCUCAGGUCUUAACCCUUCCCAGACCUGCAGCGAUUCCUGUCGACUCCCUUACACAGUAUUGAUCUUCUGACUGUGGAAACAACCUUCCUCUCACUUUCACACCUUUAAUGGAAUUCUCGGGUGCCAA`, “RBNS enrichment (R)” read 1.21.
`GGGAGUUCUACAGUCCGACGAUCUAGCUGAAGAACUUACCACGUCCAUGACUGUGCCCUGACUCAAGACCGUAUCAUGUGGUGGCUUUAUUUCUACACUUCUUGCCCACCAUGGAUGGCCUGAAGAAGCUGUUUGGAAUUCUCGGGUGCCAA` — result for “RBNS enrichment (R)”: 0.461.
`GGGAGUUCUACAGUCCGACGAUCGCACUCUAUUCCCCCAGCCUCUUUCUGCUUUCAUGCUCAGCACAUCAUCUUCCUAGGCAGUCUCUUCCCCAAAGUCUCACCUUUUCUUCCAAUAGAAAAUUCCGCUUGACUGGAAUUCUCGGGUGCCAA` — result for “RBNS enrichment (R)”: 2.48.
`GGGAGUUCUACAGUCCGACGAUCCUAAUGCAGUUUUUCAAAUUCUAGUAUUAUGUGUUGCUUAAGAUCACUACAGAGAUGCUACUGAAGAGAGACGGUAGUACAGCUCUCUUGCAGUACUGCCUGCCGUUGGUUGGAAUUCUCGGGUGCCAA`: “RBNS enrichment (R)” 0.299.
Under “RBNS enrichment (R)”, `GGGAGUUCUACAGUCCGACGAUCGGGCAUCUUUAGUUCCAAGAACUGGAAGCCAGAGCUGCAGGCUCCUCCCACCUCUCUCCAGGCUGGUGUUGACUGGGCCCGGAAAUCAAUCCCCAGCACUUACUUCUCACUGGAAUUCUCGGGUGCCAA` is recorded as 0.43.

Series 2 — method: RNA Bind-n-Seq; form: RNA; sample: in vitro; concentration: not given; reference: input RNA pool; direction: higher = stronger binding
Target: RING finger protein unkempt homolog, zinc fingers 1-6, GST-SBP tag (UNK, Homo sapiens, UniProt Q9C0B0, residues 30-357)
Sequence of UniProt Q9C0B0 (30-357, looked up): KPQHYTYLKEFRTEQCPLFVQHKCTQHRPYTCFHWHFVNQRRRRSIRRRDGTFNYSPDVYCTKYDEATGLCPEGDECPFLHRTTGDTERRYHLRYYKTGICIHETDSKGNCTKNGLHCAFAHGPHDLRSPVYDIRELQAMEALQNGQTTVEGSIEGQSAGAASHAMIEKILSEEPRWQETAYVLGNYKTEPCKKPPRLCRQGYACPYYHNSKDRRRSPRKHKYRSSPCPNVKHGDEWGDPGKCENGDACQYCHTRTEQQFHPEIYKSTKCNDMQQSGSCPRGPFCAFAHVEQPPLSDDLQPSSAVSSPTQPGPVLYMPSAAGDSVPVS
Notes: RNA with constant flanks, human and mouse sites, ends assumed
`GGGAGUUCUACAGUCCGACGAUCGAGCUUCACUCUUCUGAGAAAGGUUUAAAAGUAGAGGAAAAUAUUCAAAAGCAAAGUCAACAAACAAAGCUUUCUUCAGAUGAUAAAACCGAACGAAAAAGUAAACAUAGGAAUGAAAGGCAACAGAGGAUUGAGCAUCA` gave a bound/input enrichment of 1.1 ratio.
With `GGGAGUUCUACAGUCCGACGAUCUAUACUUCCCUGGGACCACGCAUAACUGAUGUAGCCACAUAGAGAGGAGUAGGCUGUCGGCUUAUUGACGUCUCCAAAUUGCAGCCUCACAUCUAAUGCUUACAAAGAUAAUGGAUCGCUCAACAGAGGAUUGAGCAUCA` the bound/input enrichment was 0.205 ratio.
`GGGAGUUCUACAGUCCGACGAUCGCUUGCUUGAACGGGUCUCCUCAGCGGCGGCUGGAGUCGAAUUUGGAAAUACUGCACAUCUAGUUGGCUCCAAAUUGUAAACCACAGGAUGAGUAUUCAGUGGGCAUGAGAGAUUGAGAACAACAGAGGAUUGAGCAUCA` has a bound/input enrichment of 0.207 ratio.
`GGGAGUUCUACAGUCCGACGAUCAUUCCUCUGGAAACAGGACAAAAACAGUACAACGUAGAUUAUAAGCUGGAGACUUACCUGAAGAUUGCAAGGCUAUACCUGGAGGAUGACGAUCCCGUCCAGGCCGAGGCUUACAUAAACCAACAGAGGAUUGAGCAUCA` gave a bound/input enrichment of 0.322 ratio.
`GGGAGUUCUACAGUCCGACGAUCAGCUCCCCAUAUUUCCGGGACCAUUCAGCGUUAAGUACCAUGAGUGGCUUGUCAAUAUCAGUGAUUAAAAAUCCCAAUGUGUUUGAGCAGUUGCUUUCUUUUUGUUACACUGGAAGAAUGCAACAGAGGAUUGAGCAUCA` gave a bound/input enrichment of 0.21 ratio.
For `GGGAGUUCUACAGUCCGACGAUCAUGUGCCCGCUUGAAAACUUGGUCCGCUUUGUGAAAAGGGACAUGUUUGUAGCCCUGGGUGGCAGUGGUACAAAUUAUUAUGAUGCAUGUCACAGGGAAGGAUUCUAAAAGGUAUGCAGUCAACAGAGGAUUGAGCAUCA`, the bound/input enrichment was 0.216 ratio.
With `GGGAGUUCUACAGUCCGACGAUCACUGGAGAGAAACCUUACAAGUGUGACGAAUGUGGCAAAUCAUUUAUCUGGUCCUCAACCCUUUUUAAGCAUAAGAGGAUUCAUACUUGAGAGAAACCUUAAAAAGGGUAAAGAAUGUGGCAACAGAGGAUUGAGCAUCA` the bound/input enrichment was 0.245 ratio.
`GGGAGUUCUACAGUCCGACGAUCAAGUUAUUAUUAUGCAACCACAAGGGCCUCUUCUUUCUCAGGGUGUCUAAGCUGCUGGGUUGCUUUUCGCCCAAAUCAAUGUGGUUUCUUUGGAACAUUUUCAGCAAAGGAACGCAUAUGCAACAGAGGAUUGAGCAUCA` gave a bound/input enrichment of 0.415 ratio.
The bound/input enrichment of `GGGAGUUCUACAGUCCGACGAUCAAACUGAAAGACCACUAUCUGGAGUUUGAGAAAACCCGCUAUGAAAUGUAUGUCAGCAUUCUCAAGGAAGGAGGCAAAGAGCUACUGAGUAACGAUGAAAGCGAGGCUGCAGGACUGAAGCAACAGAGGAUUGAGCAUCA` is reported as 0.318 ratio.
The bound/input enrichment of `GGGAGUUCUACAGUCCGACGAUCAGACUGAAUGCUACUUACUAUAUUACCAAGCAAAUCCUUCCACCCUUGGCAAGAAUCUUCUCACUUAUUGGUAUUGAUGUCUUCAGCUGGUAUCAUGAAUUACCAAGGAUCCAUAAAGCUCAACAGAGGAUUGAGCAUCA` is reported as 0.252 ratio.
The bound/input enrichment of `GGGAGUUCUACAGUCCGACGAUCGUGUUGGUACAGAGUGCUCUGUACCAGUGCUCAUCAUCCCUUCUUCAUACCAACGGUCCCUAGUUAUAGGAAUUUAAUAUUUUUAAAAGUUUUACAUUGCUGUAUAUUCAAAGAUUUGUUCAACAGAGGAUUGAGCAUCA` is reported as 12.7 ratio.

Series 3 — method: Sort-seq; item: YFP reporter; sample: E. coli; notes: PhoQ-PhoP variant library; added: 10 µM Mg2+; reference: high Mg2+ state; direction: higher = stronger signaling
Molecule: PhoQ, residues 284 288 289 292 302 303 GANMMA
PhoP, residues 12 14 15 18 19 TPWTL (Escherichia coli, UniProt P23836) — fold induction: 0.929.
The fold induction was 9.84 (PhoP, residues 12 14 15 18 19 VGHWL (Escherichia coli, UniProt P23836)).
PhoP, residues 12 14 15 18 19 NFFVT (Escherichia coli, UniProt P23836) — fold induction: 10.2.
The fold induction was 11.4 (PhoP, residues 12 14 15 18 19 LHHYF (Escherichia coli, UniProt P23836)).

Series 4 — method: competition protein-binding microarray; form: double-stranded DNA, one strand shown; sample: in vitro; concentration: 2 µM; added: Cbf1 competitor, 0.05 µM; direction: higher = stronger binding
Target: Phosphate system positive regulatory protein PHO4, full length, GST-tagged (PHO4, Saccharomyces cerevisiae, UniProt P07270, residues 1-312)
Notes: whole 60-bp probe, lowest competitor level
Residues (chain): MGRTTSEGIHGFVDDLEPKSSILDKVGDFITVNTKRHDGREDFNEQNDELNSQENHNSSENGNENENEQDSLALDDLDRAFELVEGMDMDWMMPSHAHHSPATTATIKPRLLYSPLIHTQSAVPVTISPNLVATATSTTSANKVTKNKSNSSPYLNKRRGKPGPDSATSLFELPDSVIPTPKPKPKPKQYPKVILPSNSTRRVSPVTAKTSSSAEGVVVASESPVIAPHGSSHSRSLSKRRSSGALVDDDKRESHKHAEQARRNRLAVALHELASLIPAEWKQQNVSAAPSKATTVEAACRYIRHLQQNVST
With `CTTTCCCGATCTTGCCGGGTGGGTGTAGCACATTTGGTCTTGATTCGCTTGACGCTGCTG` the fluorescence intensity was 5480 a.u.
For `CTAACATCGTCCGCGCAGGTGACGCCTCCCGCGCTGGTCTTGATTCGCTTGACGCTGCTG`, the fluorescence intensity was 5620 a.u.
`TCTGGGAGAGCCTGTCAGATGACGAATCAGAAGACAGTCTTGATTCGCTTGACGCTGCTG` has a fluorescence intensity of 2780 a.u.
`AGTGTGGTCTTGGCTCTCGTGCCAGCTGCCTCCGTAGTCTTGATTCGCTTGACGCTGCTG` gave a fluorescence intensity of 6090 a.u.
With `CGTCCTAGTGATTGTAAGGTGGGTGCCATGAGGAAGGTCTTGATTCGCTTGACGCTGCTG` the fluorescence intensity was 8770 a.u.
The fluorescence intensity of `CCTCAACAACGTCGGGGCGTGGGTATTGGGATATCGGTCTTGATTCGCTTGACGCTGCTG` is reported as 10300 a.u.
`CGGGGTTAAGTTTTTCACGTGCTTTGCTTGCAGCAGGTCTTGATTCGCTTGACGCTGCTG` has a fluorescence intensity of 14700 a.u.
For `GTTATAAGTGCTTTTCTCGTGCATCCCTTGGCACTTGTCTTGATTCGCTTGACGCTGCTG`, the fluorescence intensity was 6940 a.u.
`CAGCGGATTCCCGAGCACATGGAGTCGCTGAACGGCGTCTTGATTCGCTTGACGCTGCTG` has a fluorescence intensity of 9150 a.u.
The fluorescence intensity of `ATGTTCCACAATACAAGCGTGACTCGAGACGTAAGGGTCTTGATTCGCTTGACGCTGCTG` is reported as 7000 a.u.
For `CGTCCTAGCGATTGAGGGGTGGGTGCCATGAGGAAGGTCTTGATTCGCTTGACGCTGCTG`, the fluorescence intensity was 6650 a.u.
`CGGGGTTAAGTTTGAAGTGTGGGTGGCTTGCAGCAGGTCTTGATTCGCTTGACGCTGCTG` gave a fluorescence intensity of 5330 a.u.
The fluorescence intensity of `GTTCTGGGTATTTCGCATGTGGATGGGTTCAGTGTCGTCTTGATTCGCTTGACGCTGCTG` is reported as 9240 a.u.
For `TTGTTGCCACAAATGAACGTGGAAGGAGTTTCTGGGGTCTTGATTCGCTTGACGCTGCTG`, the fluorescence intensity was 9400 a.u.

Excerpt of the above (series 1):
For `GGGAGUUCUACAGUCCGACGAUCUUAAGAAGCUCAUGACCAAGGGCCGCUACUCGCUGGAUGUAUGGAGCUAGGAGCUGCCGCCCCCCACCCCUCGCUCCCUGUAAUCACGUCCUUAACUUCCUUCUGCCGACUGGAAUUCUCGGGUGCCAA`, “RBNS enrichment (R)” read 0.934.
`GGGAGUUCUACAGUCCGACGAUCGCACUCUAUUCCCCCAGCCUCUUUCUGCUUUCAUGCUCAGCACAUCAUCUUCCUAGGCAGUCUCUUCCCCAAAGUCUCACCUUUUCUUCCAAUAGAAAAUUCCGCUUGACUGGAAUUCUCGGGUGCCAA` — result for “RBNS enrichment (R)”: 2.48.
`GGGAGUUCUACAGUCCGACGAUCCUCUCCCCUUUUACCAUGACCUUGACACAUGAGCACAUGAAGGAAGGUAGCCAGGGGGCAUUUGCUGUCCAAAAAAAUGUUAUGAGCAGAAGAGAUUUUUACAGUAACAUUGGAAUUCUCGGGUGCCAA` — result for “RBNS enrichment (R)”: 0.349.
